Measured values of several laboratories.
Compare with care: the assays were run in different laboratories.
CDK9 with cyclin K: Cyclin-dependent kinase 9, with cyclin K (CDK9, Homo sapiens, UniProt P50750)
Sequence of UniProt P50750 (whole entry, looked up): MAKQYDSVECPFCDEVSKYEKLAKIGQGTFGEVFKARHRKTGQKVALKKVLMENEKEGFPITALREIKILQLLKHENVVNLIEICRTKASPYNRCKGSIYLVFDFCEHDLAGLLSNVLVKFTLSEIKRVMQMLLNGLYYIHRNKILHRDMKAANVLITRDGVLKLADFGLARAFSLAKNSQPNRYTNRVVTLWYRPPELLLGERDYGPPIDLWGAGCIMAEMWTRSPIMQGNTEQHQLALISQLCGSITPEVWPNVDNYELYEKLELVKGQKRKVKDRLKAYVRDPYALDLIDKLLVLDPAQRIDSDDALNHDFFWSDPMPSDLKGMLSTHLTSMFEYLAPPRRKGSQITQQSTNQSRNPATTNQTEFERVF
SMARCA4: SWI/SNF-related matrix-associated actin-dependent regulator of chromatin subfamily A member 4 (SMARCA4, Homo sapiens, UniProt P51532)
Sequence of UniProt P51532 (whole entry, looked up): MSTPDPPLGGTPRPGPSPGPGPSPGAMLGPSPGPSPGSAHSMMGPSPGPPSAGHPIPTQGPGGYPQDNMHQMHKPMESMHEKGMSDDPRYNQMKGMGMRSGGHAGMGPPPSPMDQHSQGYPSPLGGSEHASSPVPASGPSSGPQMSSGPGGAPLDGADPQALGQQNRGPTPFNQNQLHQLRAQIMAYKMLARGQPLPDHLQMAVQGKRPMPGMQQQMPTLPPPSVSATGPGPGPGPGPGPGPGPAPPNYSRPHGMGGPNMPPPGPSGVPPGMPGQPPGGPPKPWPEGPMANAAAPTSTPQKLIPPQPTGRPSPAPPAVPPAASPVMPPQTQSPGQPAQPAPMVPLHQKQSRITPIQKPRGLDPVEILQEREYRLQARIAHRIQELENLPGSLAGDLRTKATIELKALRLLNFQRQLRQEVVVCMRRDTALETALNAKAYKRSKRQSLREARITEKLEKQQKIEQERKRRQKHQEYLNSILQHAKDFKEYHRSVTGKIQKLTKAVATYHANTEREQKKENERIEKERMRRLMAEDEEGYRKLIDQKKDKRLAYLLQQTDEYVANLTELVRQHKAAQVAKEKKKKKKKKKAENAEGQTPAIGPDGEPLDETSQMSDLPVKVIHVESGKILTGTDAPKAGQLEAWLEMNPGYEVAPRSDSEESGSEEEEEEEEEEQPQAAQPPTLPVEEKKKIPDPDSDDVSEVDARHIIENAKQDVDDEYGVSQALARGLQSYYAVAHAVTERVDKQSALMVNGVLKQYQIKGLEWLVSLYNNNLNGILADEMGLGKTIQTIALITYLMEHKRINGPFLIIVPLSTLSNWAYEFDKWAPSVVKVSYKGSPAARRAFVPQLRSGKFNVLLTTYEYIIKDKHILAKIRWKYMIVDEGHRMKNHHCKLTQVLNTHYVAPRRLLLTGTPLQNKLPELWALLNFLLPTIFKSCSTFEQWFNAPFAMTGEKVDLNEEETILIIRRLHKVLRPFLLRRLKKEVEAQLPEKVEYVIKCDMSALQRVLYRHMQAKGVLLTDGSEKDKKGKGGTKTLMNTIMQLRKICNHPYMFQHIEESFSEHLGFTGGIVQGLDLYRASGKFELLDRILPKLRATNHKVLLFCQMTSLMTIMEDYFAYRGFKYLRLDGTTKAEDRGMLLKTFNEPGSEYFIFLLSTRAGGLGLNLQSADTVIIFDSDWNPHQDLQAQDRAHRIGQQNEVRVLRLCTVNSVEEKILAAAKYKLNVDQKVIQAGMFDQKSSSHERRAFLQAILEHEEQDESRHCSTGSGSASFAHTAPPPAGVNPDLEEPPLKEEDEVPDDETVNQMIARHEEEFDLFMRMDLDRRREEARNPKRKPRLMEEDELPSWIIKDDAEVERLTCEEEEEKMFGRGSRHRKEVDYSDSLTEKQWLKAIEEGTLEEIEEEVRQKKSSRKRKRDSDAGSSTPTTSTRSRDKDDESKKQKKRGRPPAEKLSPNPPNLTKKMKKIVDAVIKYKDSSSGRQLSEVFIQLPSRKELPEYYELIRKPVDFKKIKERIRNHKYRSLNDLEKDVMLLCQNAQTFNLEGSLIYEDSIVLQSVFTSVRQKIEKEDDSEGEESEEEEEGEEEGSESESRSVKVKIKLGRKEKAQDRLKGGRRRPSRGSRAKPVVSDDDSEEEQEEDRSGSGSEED
Sequence of UniProt P10275 (whole entry, looked up): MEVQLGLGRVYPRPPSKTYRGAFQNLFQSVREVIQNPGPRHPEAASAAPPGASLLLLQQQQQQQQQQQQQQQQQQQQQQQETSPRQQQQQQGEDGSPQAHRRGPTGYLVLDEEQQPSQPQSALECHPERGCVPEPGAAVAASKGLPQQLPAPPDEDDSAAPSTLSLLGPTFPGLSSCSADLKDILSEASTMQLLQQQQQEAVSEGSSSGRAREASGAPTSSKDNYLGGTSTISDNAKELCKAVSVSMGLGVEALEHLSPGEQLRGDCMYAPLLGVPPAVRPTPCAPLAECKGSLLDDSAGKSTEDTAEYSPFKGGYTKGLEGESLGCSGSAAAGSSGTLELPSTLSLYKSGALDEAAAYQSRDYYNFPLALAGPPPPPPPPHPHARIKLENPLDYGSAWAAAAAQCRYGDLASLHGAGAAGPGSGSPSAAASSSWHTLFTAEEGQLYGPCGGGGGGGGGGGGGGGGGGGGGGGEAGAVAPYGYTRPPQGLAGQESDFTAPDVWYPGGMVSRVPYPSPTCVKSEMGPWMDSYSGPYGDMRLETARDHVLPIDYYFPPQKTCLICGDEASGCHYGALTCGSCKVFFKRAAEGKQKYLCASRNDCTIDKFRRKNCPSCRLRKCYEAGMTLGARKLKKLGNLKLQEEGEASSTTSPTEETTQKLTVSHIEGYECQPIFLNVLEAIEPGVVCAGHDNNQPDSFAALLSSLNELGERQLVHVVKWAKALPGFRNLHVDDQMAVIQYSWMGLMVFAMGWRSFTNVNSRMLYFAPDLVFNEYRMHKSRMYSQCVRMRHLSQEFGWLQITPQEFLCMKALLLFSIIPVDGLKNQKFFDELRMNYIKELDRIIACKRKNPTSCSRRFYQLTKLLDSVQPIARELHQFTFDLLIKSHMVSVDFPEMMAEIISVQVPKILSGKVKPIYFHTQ
Sequence of UniProt P53667 (whole entry, looked up): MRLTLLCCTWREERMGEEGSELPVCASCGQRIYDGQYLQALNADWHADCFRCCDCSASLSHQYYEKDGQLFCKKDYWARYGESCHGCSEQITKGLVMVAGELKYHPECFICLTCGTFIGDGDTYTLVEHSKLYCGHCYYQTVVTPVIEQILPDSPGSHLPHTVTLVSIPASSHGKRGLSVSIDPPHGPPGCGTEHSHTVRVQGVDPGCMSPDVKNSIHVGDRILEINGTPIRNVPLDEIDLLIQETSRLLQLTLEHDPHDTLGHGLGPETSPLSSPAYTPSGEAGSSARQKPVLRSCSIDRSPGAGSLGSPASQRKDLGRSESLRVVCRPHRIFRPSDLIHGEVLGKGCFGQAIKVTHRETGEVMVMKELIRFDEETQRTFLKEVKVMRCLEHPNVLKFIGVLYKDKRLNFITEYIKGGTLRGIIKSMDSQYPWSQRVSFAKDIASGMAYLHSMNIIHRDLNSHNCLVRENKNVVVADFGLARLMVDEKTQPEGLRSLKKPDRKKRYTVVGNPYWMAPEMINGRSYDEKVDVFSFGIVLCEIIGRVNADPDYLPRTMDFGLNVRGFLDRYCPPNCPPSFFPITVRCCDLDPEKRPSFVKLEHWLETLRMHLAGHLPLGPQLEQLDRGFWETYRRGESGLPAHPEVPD

SMILES	target or system	assay	system	conditions	scale	endpoint	result
Cc1cc2nc3n(c2cc1C)C(C)(C)NC(N)=N3	THP-1-derived macrophages	–	–	72 h, max 1% DMSO	–	CC50	> 100 µM
O=C1Nc2cc(OC(F)(F)F)ccc2Oc2ccc(-c3ccnc(N4CCNCC4)c3)cc21	tyrosine-protein kinase ABL1 (Rattus norvegicus, UniProt A0ABK0LKB8)	CRKII phosphorylation, inhibitor, in vitro kinase	rat neuron c-Abl	with: 100 µM H2O2 stimulus	–	inhibitory concentration range	0.1 to 1 µM
NC(=O)C[C@H]1CCc2sc3ncnc(O[C@H]4CC[C@H](N5CCOCC5)CC4)c3c21	CDK9 with cyclin K	inhibitor	–	10 µM	–	inhibition	34%
COc1cc(/C=N/NC(=O)c2cc3c(ccc4ccccc43)o2)cc(I)c1O	Androgen receptor (AR, Homo sapiens, UniProt P10275)	inhibitor	–	–	–	IC50	50 to 100 µM
NC(=O)[C@@H](O)C[C@H]1CCc2sc3ncnc(O[C@H]4CC[C@H](N5CCOCC5)CC4)c3c21	CDK9 with cyclin K	inhibitor	–	10 µM	–	inhibition	28%
Cn1cc(-c2cc(N3CCCCS3(=O)=O)ccc2N[C@H]2CC[C@H](C)CC2)c2cc[nH]c2c1=O (stereo in doubt)	SMARCA4	enzyme activity	–	1 µM	–	remaining activity	100%
CN1CCN(Cc2ccc(-c3ccc(CO[C@H]4CCC[C@@H]4NC(=O)c4cc(-c5cnn(C)c5)cnc4N)cc3)cc2)CC1	CDK9 with cyclin K	inhibitor	–	0.1 µM	–	inhibition	0%
CC1(C)NC(N)=Nc2nc3ccc(Cl)cc3n21	THP-1-derived macrophages	–	–	72 h, max 1% DMSO	–	CC50	> 100 µM
CCCCC[C@H](O)/C=C/[C@H]1[C@H](O)CC(=O)[C@@H]1C/C=C\CCCC(=O)O	SLCO2A1 (Homo sapiens, UniProt Q92959, S346F)	–	cells expressing mutant SLCO2A1	–	baseline: wild type SLCO2A1	IC50 fold change	3.5 fold
CC(=O)N1c2ccc(-c3ccc(CNC(=O)c4cn5cc(-c6cnc(N)nc6)nc(N6CCOCC6)c5n4)cc3)cc2CC[C@@H]1C	SMARCA4	–	–	10 µM	–	remaining activity	100%
Nc1nnc(-c2ccccc2O)cc1N1CC2CCC(C1)N2c1ccnc(C#CCCN2CCCCCC2)c1	SMARCA4	degrader, immunoblot	SW1573	concentration not given, 15 min	baseline: DMSO	remaining protein	80.3%
COc1cc(-c2nn(C3CCC(N4CCN(C)CC4)CC3)c3ncnc(N)c23)ccc1NC(=O)OCc1ccccc1 (stereo not shown)	LIM domain kinase 1 (LIMK1, Homo sapiens, UniProt P53667)	kinase activity, inhibitor, BiFC	–	–	–	inhibitory concentration range	5 to 10 µM
O=C(O)c1ccc(Cn2c(=O)n(Cc3ccc(C(=O)NCC4COC4)cc3)c(=O)c3ccccc32)cc1	HEp-2	–	–	5 days	–	CC50	> 50 µM

A few entries again:
SMILES	target or system	assay	system	conditions	scale	endpoint	result
NC(=O)[C@@H](O)C[C@H]1CCc2sc3ncnc(O[C@H]4CC[C@H](N5CCOCC5)CC4)c3c21	CDK9 with cyclin K	inhibitor	–	10 µM	–	inhibition	28%
COc1cc(/C=N/NC(=O)c2cc3c(ccc4ccccc43)o2)cc(I)c1O	Androgen receptor (AR, Homo sapiens, UniProt P10275)	inhibitor	–	–	–	IC50	50 to 100 µM
